# Measured values pooled from the literature.
# Every numbered part comes from another study and shows a few of its results, in no order. Changes are numbered by the printed parent chain.

# Study 1 — target: CCNA1, cyclin fold, Cln2 fusion (human); method: yeast growth competition, sequencing; matrix: yeast; setting: weak parent motif; reference: not given; reading: higher = stronger binding
# Starting sequence: SLBP docking peptide (human); ARYKRKLLINDFG
Change,normalised enrichment score
AWYKRKLLINDFG [R2W],0.6
ARYKRKLLIPDFG [N10P],0.573
AIYKRKLLINDFG [R2I],0.52
ARYKRPLLINDFG [K6P],0.35
ARQKRKLLINDFG [Y3Q],0.47
ARYERKLLINDFG [K4E],0.215
ARYKRKLLVNDFG [I9V],0.0546
ARYKLKLLINDFG [R5L],0.598
ARYKRKLLINDYG [F12Y],0.654
ARYKRKLLINFFG [D11F],-0.0667
ARYKRKLLINEFG [D11E],0.48
ARYKRKELINDFG [L7E],0.176
ARYKRKLLSNDFG [I9S],0.811
ARYKRKLLIGDFG [N10G],0.697
ARYKFKLLINDFG [R5F],0.252
ARYKRALLINDFG [K6A],0.569
ARYKRKVLINDFG [L7V],0.142

# Study 2 — method: RNA Bind-n-Seq; form: RNA; matrix: in vitro; concentration: 365 nM; reference: no-protein control; reading: higher = stronger binding
# Target: RNA binding protein fox-1 homolog 2, RRM domain, GST-SBP tag (RBFOX2, Homo sapiens, UniProt O43251-10, residues 100-194)
# Setting: natural RNA segment, single round, ends assumed
# Target sequence (chain): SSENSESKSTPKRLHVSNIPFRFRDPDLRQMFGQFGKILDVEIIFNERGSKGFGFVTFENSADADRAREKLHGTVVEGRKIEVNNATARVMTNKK
Oligonucleotide,RBNS enrichment (R)
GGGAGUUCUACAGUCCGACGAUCAGUUGCUUUUUGGGGUAAUUUGAAUUACUUUUUUAAUGACUGGGGUUCCAUUUGACUGUUUGCAUUGAGAUUGCAAUGUGCGCAAUUUUUUUUGUAGUUGUGGCAUCUUGUGGAAUUCUCGGGUGCCAA,0.878
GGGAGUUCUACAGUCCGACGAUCGCUUGUAUGUUUGGUUUGUUGUUUUUGUUUUUUUGUUUUUUUUAAUGCACAACUUGCUUGUACAGGUCAACUGUCCAUCUUGGGUACUAUUUAACUGUCAAACAGAGGAAUGGAAUUCUCGGGUGCCAA,5.57
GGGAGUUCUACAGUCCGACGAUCUAGCAGGACUGAAUUGUCCCCAGUUUGCAGAAAAGCACCUGCCGACCUCGUCCUCCCCCUGCCAGUGCCUUACCUCCUGCCCAGGAGAGCCAGCCCUCCCUGUCCUCCUCUGGAAUUCUCGGGUGCCAA,0.505
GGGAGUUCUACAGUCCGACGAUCAGUAAGUUGUUAACUGAGGGCUUUAAACCUGGAGGCUCUUCCUGAAAGUAUGUUCAUGAAUACCCCAAGCAUCAAGGUCUAAAUAAUUUUCAGAAGAUUAGAAUUGGGUAUGGAAUUCUCGGGUGCCAA,1.02
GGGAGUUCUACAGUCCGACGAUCGAGCGAGGCUACUCACUGGUAUCAGGUGGUACUGACAACCACCUGGUGCUGGUGGACCUGCGGCCCAAGGGCCUGGAUGGAGCUCGGGCUGAGCGGGUGCUAGAGCUUGUUGGAAUUCUCGGGUGCCAA,0.608
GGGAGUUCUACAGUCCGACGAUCACAUUGACUGGGAAACCUGAGUGAGACCCAGCAACUGCUUCUCUCCCUUCUCUCUCCUGAGGUGAAGCUUUUCCAGGUUUUGUUGAAGAGAUACCUGCCAGCACUUCUGCUGGAAUUCUCGGGUGCCAA,0.264
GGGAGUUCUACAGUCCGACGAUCAGGUUCUCUUUGCGCUUGCCUUCUCACACCCCCCGACUCCCCACCCAUAUUUUGGUACCAGUUUCUCCUCAUGAAAUGCAGUCCCUGGAUUCUGUGCCAUCUGAACAUGCUGGAAUUCUCGGGUGCCAA,0.441
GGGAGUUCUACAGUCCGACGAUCUUCCAGGUGUACGUAAACUAACUGAAAGUAUUAAGGACAUGCCUGUCUAUACAUGGGUUUCAUUGAUGGUAUCUGUAUCAUCUUGACAAAUCGUGAACUGCUGCUGUAUGUGGAAUUCUCGGGUGCCAA,0.462
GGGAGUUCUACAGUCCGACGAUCGUCUUUAAGCCACGUCUCUGAAAUCUUGUGAGGGGUGAAGAAAGAGGACUGGAGAUGAAUGGACAAUAUGAUCAAAGACUCAUUUUUAGGCCUUGAAGAGGCCGAGCUUUUGGAAUUCUCGGGUGCCAA,0.81
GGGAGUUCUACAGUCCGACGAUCAGACUGUUGUUUUUUUAGAGCUUGAUUGUGGGAGAAAAGCUUGUGUGAAAUUCCCUCUUCACCUCCCCACCCCCCAAAAAAUAAAAGGGGGCAUAAACUUUAUUCCACUGUGGAAUUCUCGGGUGCCAA,0.663
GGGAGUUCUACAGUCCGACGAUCUUGGCUCAGCUGUAUGAAGGUUGGACAGCCUGGGUGUGAAUGGCAAGACAGUAGAUGAGUCUGGUUAAGCGAGGUCAGACAUCCACCAGAAUCAACUCAGCCUCAGGCAUUGGAAUUCUCGGGUGCCAA,0.634
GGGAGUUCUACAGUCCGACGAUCUGAGGGAGAGGGCAGACUCAGGUGGGAAGAUGUGCCAUGCGUAAGGCAUCAACGUGUAUCUGUGGGAUCUUCGUUGCCUUCAGUAAUCAGGGUGUGAAAAAAGCAGACAAUGGAAUUCUCGGGUGCCAA,0.743

# Study 3 — method: universal PBM; form: double-stranded DNA, one strand shown; matrix: in vitro; concentration: 600 nM; reading: higher = stronger binding
# Target: Sal-like protein 4, full length isoform A (SALL4, Homo sapiens, UniProt Q9UJQ4, residues 1-1053)
# Chain of UniProt Q9UJQ4 (whole entry, looked up): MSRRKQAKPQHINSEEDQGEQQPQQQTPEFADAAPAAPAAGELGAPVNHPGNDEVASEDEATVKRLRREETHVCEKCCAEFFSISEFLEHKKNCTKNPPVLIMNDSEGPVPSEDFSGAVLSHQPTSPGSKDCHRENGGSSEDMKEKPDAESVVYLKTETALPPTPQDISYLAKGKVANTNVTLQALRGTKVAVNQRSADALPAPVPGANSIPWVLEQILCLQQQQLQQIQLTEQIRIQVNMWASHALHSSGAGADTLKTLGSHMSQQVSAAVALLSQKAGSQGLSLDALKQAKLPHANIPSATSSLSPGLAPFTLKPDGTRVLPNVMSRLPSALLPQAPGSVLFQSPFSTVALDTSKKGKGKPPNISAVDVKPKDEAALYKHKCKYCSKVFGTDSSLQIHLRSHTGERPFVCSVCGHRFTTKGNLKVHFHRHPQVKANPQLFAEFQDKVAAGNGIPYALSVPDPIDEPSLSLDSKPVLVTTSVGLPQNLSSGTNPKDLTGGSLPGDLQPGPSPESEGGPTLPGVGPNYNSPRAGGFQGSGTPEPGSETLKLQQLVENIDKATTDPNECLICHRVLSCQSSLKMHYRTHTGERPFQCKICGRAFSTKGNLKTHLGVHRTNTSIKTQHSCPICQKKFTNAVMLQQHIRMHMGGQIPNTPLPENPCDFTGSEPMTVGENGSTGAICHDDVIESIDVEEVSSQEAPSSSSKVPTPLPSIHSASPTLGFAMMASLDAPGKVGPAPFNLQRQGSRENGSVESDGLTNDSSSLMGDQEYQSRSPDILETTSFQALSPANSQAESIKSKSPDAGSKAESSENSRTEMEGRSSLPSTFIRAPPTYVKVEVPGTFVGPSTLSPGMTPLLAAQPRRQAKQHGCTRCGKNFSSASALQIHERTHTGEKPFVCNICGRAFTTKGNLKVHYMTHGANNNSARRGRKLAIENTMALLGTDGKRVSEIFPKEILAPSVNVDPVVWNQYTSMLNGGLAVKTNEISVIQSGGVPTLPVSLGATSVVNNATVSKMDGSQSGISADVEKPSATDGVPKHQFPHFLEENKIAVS
# Setting: 8-mer, flanks averaged, mean of replicates
Oligonucleotide,E-score
GTTGCCGA,-0.171
AGGCATTA,0.0278
ATAGAAGA,0.208
AATACCAA,0.261
ATTTGTAC,0.217
TAGGAATA,0.281
ACGTGAAA,0.255
ACTAGTCG,-0.193
ATTAGTCA,0.203
TCCACGAA,0.135
AACCTCAA,0.0895

# Study 4 — method: protein-binding microarray; form: double-stranded DNA, one strand shown; matrix: in vitro; concentration: 2200 nM top; setting: 60-bp whole probe; added: salmon DNA 0.4 mg/ml; reference: random background probes; reading: higher = stronger binding; all sequences stand within: GCCTAGCAC … GTCTTGATTCGCTTGACGCTGCTG
# Target: Interferon regulatory factor 7, full length, phosphomimetic (IRF7, Homo sapiens, UniProt Q92985, residues 1-503, S471D/S472D/S475D/S476D/S477D/S483D/S484D/S487D)
# Chain of UniProt Q92985 (whole entry, unmodified, looked up): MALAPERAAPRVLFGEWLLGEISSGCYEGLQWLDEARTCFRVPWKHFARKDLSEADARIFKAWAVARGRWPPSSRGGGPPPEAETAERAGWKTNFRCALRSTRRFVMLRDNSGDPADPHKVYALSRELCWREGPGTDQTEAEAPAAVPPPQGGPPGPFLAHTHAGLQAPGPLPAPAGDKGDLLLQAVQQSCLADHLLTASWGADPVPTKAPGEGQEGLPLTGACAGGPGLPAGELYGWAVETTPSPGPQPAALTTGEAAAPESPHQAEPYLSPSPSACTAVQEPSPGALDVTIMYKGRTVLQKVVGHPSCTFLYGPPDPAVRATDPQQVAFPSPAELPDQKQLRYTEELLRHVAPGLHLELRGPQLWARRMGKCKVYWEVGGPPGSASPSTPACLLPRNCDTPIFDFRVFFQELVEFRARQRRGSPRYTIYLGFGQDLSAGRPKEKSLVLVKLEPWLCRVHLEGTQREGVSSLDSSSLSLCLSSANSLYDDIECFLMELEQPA
Oligonucleotide,fitted relative affinity [z-score]
TCCTGTTTGATAATTTTTTTGTGCTAG,1.6
GACGGTAACGACACTGGGGACGTGCTA,-0.72
TCATTTCTACTTCTGTTACTGTGCTAG,3.21
TCAGTTTTCTTTTCCATACTGTGCTAG,5.55
GACGGACTGCTACTGCAGACGTGCTAG,-0.616
GACGGTTTCCTTCTCTTGACGTGCTAG,2.99
GACGAACTGGGACTGGGGACGTGCTAG,-0.366
AACTTTTTTTAATTGAGAAGGTGCTAG,-0.509
GACGGTTTCAGTCTCGAGACGTGCTAG,2
TTAGGTTTCCTTTCCCTATAGTGCTAG,4.16
GACGGTCTCGGTATCGGGGCGTGCTAG,0.319
TCATTTCTCTTTCACTGACTGTGCTAG,3.95
TCATTTCTAAAACTCTTACTGTGCTAG,1.19
AGAGTAAATTAAGTTAGAACGTGCTAG,-1.44
CTAGATTTCGGGTTTCGATTAGTGCTA,6.3
TTAGGCTTCGGACTGGGTTAGTGCTAG,-0.479
TTAGAACTAAGTCTCGATTAGTGCTAG,-0.411
TTCGTTTTGTGTCTGGGCATGTGCTAG,2.79
GACGAATTGAGTCTCGAGACGTGCTAG,0.00454
GACGGACTGCTACCGCTGACGTGCTAG,-0.189
TCTCTTTCCTTACTTCCCAATGTGCTA,3.58
TCATTTTTTTTTTTGTAACTGTGCTAG,2

# Study 5 — method: DHFR PCA, deep sequencing; matrix: yeast; added: (+)-ABA 0.39 µM; reference: wild-type fitted maximum; reading: higher = stronger binding
# Target: ABI1, truncated, D143A, DHFR fusion (Arabidopsis thaliana)
# Setting: methotrexate growth selection, single substitutions
# Starting sequence: PYL1, truncated, DHFR fusion (Arabidopsis thaliana); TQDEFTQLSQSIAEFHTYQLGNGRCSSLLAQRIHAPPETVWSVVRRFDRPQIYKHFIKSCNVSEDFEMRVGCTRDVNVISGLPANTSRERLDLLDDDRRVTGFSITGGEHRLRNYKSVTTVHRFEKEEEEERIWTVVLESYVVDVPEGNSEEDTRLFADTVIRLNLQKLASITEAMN; partner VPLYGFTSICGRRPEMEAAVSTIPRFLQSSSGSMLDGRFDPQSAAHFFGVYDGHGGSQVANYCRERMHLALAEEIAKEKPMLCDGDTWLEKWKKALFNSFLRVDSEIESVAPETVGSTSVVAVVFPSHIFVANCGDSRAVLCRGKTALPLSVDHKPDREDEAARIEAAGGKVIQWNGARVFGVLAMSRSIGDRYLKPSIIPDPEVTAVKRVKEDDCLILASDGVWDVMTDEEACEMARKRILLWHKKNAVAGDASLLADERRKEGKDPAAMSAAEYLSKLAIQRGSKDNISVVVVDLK
Change,relative binding score
T120E,-13.2%
A175L,16.2%
R155P,-8.94%
F66C,16.5%
R132V,41.8%
A30L,33.6%
R99D,-1.76%
A35G,-0.985%
V44F,-5.7%
L156W,18%
G102D,12.2%
T120A,8.67%
N85D,21.7%
H122W,-15%
P146F,-28.6%
L164E,-6.08%
V161K,16.3%
V62Y,2.95%
R24T,30.7%
G108H,-3.56%
I105Y,-11.7%

# For quick reference, copied from above (study 2):
Oligonucleotide,RBNS enrichment (R)
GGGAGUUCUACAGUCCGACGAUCAGUUGCUUUUUGGGGUAAUUUGAAUUACUUUUUUAAUGACUGGGGUUCCAUUUGACUGUUUGCAUUGAGAUUGCAAUGUGCGCAAUUUUUUUUGUAGUUGUGGCAUCUUGUGGAAUUCUCGGGUGCCAA,0.878
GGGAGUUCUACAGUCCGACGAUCGAGCGAGGCUACUCACUGGUAUCAGGUGGUACUGACAACCACCUGGUGCUGGUGGACCUGCGGCCCAAGGGCCUGGAUGGAGCUCGGGCUGAGCGGGUGCUAGAGCUUGUUGGAAUUCUCGGGUGCCAA,0.608
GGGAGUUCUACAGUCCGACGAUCUGAGGGAGAGGGCAGACUCAGGUGGGAAGAUGUGCCAUGCGUAAGGCAUCAACGUGUAUCUGUGGGAUCUUCGUUGCCUUCAGUAAUCAGGGUGUGAAAAAAGCAGACAAUGGAAUUCUCGGGUGCCAA,0.743
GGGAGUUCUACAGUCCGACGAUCAGGUUCUCUUUGCGCUUGCCUUCUCACACCCCCCGACUCCCCACCCAUAUUUUGGUACCAGUUUCUCCUCAUGAAAUGCAGUCCCUGGAUUCUGUGCCAUCUGAACAUGCUGGAAUUCUCGGGUGCCAA,0.441
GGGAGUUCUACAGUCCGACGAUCAGUAAGUUGUUAACUGAGGGCUUUAAACCUGGAGGCUCUUCCUGAAAGUAUGUUCAUGAAUACCCCAAGCAUCAAGGUCUAAAUAAUUUUCAGAAGAUUAGAAUUGGGUAUGGAAUUCUCGGGUGCCAA,1.02
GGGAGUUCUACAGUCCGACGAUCUUGGCUCAGCUGUAUGAAGGUUGGACAGCCUGGGUGUGAAUGGCAAGACAGUAGAUGAGUCUGGUUAAGCGAGGUCAGACAUCCACCAGAAUCAACUCAGCCUCAGGCAUUGGAAUUCUCGGGUGCCAA,0.634
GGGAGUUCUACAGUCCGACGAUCACAUUGACUGGGAAACCUGAGUGAGACCCAGCAACUGCUUCUCUCCCUUCUCUCUCCUGAGGUGAAGCUUUUCCAGGUUUUGUUGAAGAGAUACCUGCCAGCACUUCUGCUGGAAUUCUCGGGUGCCAA,0.264
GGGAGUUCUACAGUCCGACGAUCUAGCAGGACUGAAUUGUCCCCAGUUUGCAGAAAAGCACCUGCCGACCUCGUCCUCCCCCUGCCAGUGCCUUACCUCCUGCCCAGGAGAGCCAGCCCUCCCUGUCCUCCUCUGGAAUUCUCGGGUGCCAA,0.505
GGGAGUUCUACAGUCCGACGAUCAGACUGUUGUUUUUUUAGAGCUUGAUUGUGGGAGAAAAGCUUGUGUGAAAUUCCCUCUUCACCUCCCCACCCCCCAAAAAAUAAAAGGGGGCAUAAACUUUAUUCCACUGUGGAAUUCUCGGGUGCCAA,0.663
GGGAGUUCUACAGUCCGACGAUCGCUUGUAUGUUUGGUUUGUUGUUUUUGUUUUUUUGUUUUUUUUAAUGCACAACUUGCUUGUACAGGUCAACUGUCCAUCUUGGGUACUAUUUAACUGUCAAACAGAGGAAUGGAAUUCUCGGGUGCCAA,5.57
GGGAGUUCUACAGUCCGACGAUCUUCCAGGUGUACGUAAACUAACUGAAAGUAUUAAGGACAUGCCUGUCUAUACAUGGGUUUCAUUGAUGGUAUCUGUAUCAUCUUGACAAAUCGUGAACUGCUGCUGUAUGUGGAAUUCUCGGGUGCCAA,0.462
